Measured values from different studies.
Compare with care: the assays were run in different laboratories. Numbers after ± are the reported error.

SMILES | cell line | assay | conditions | IC50 [µM]
Cc1ccc2nc(NC(=O)Cn3cc(COc4ccc(/C=N/Nc5cc([N+](=O)[O-])cc([N+](=O)[O-])c5)cc4)nn3)sc2c1 | normal dermal fibroblasts | cell viability, MTT | 48 h | > 500
[Cl][Au].[Se]=c1n(C23CC4CC(CC(C4)C2)C3)ccn1C12CC3CC(CC(C3)C1)C2 | A-431 | cell growth or viability, MTT | 72 h | 3.3
CCCC(=O)N1CCN(c2ccc(NC(=O)c3ccc([N+](=O)[O-])o3)cc2Cl)CC1 | HCC4017 | cell growth or viability, MTS | 96 h | 8
COc1cc(NC(=O)c2ccc(Cl)nc2)ccc1C(=O)Nc1ccc(Cl)c(-c2nc3ccccc3[nH]2)c1 | NIH3T3-Gli-Luc | Hedgehog signalling, Gli-luciferase reporter | together with: Shh-conditioned medium | 0.86 ± 0.09
CCCC(CCC)C(=O)[O][Pt]([NH2])([NH2])([Cl])([Cl])[O]C(=O)C(Cl)Cl | PSN1 3D spheroids |  |  | 3.38 ± 0.88
N=C(N)NCCC[C@H](N)C(=O)N[C@@H](CC(=O)N[C@@H](CC(=O)O)c1cccc2ccccc12)c1cccc2ccccc12 | BT-474 (HER2-overexpressing) |  |  | > 50
CC(C)(C)c1cc(=O)n2ncc(-c3ccc(F)cc3)c2[nH]1 | SW620 organoids | vimentin reporter GFP |  | 8.5
Cc1cc(C)cc(/C=N/NC(=N)N/N=C/c2cc(C)cc(C)c2)c1 | IMR-90 | cell growth or viability, crystal violet | 72 h | 89.1
CC(C)(C)C(=O)Nc1ccc2[nH]c(CN3CCC(N(CCCN4CCOCC4)CC4OC(n5cnc6c(N)ncnc65)C(O)C4O)CC3)nc2c1 (stereo not drawn) | H460 R231Q | cell proliferation, CCK-8 | 72 h | 6.18 ± 0.55
CCC(C(=O)O)C1CCC(C)C(C(C)C(O)C(C)C(=O)C(CC)C2OC3(C=CC(NCc4cn(COC(=O)C(C)(C)C)nn4)C4(CCC(C)(C5CCC(O)(CC)C(C)O5)O4)O3)C(C)CC2C)O1 (stereo not drawn) | HMLER CD24high/CD44low | cell viability, CellTiter-Blue | 72 h | 10.3 ± 1
CCN(CC)CCO/N=C1/C=C2CCC3C(CC[C@]4(C)/C(=C/c5ccccn5)CCC34)[C@@]2(C)CC1 (stereo partly drawn) | G-361 | cell growth or viability, resazurin | 72 h | 3.8
CCN(CC)CCNC(=O)c1c(C)[nH]c(/C=C2\C(=O)Nc3ccc(F)cc32)c1C | U138-MG | cell growth or viability, MTT | 72 h | 6
CCCCCC(=O)O[C@H]1[C@H](C)O[C@@H](O[C@H]2[C@H](N(C)C)[C@@H](O)[C@H](O[C@H]3[C@@H](CC=O)C[C@@H](C)[C@@H](O[C@H]4CC[C@H](N(C)C)[C@@H](C)O4)/C=C/C=C/C[C@@H](C)OC(=O)C[C@@H](O)[C@@H]3OC)O[C@@H]2C)C[C@@]1(C)O | HGC-27 | cell growth or viability, CCK-8 | 72 h | 5.23
N[C@@H](CCC(=O)N[C@@H](CS[Se]Cc1ccc(-c2cc(C(F)(F)F)nn2-c2ccc(S(N)(=O)=O)cc2)cc1)C(=O)NCC(=O)O)C(=O)O | 1205 Lu melanoma cells | cell viability, MTS | 24 h | 24.6 ± 2.2
Oc1c(/N=N/c2ccccn2)ccc2ccccc12 | HCC4017 | cell growth or viability, MTS | 96 h | 6.5
CCNC(=O)OCc1c(COC(=O)NCC)c(-c2ccc(OC)cc2)n2c1Cc1ccccc1-2 | CL1-5 | cell growth or viability, resazurin | 72 h | 26.5
C=C(C)[C@@H]1CC[C@]2(C(=O)OCO/N=[N+](\[O-])N3CCCC3)CC[C@]3(C)[C@H](CC[C@@H]4[C@@]5(C)CC[C@H](OC(C)=O)C(C)(C)[C@@H]5CC[C@]43C)[C@@H]12 | B16-F10 | cell growth or viability, MTT | 72 h | 0.89
C(=N\Nc1nc(-c2ccccn2)nc2ccccc12)/c1ccccc1 | LDR | cell viability, MTS | 4 days | 1.2

For quick reference, copied from above:
SMILES | cell line | assay | conditions | IC50 [µM]
Cc1cc(C)cc(/C=N/NC(=N)N/N=C/c2cc(C)cc(C)c2)c1 | IMR-90 | cell growth or viability, crystal violet | 72 h | 89.1
CC(C)(C)C(=O)Nc1ccc2[nH]c(CN3CCC(N(CCCN4CCOCC4)CC4OC(n5cnc6c(N)ncnc65)C(O)C4O)CC3)nc2c1 (stereo not drawn) | H460 R231Q | cell proliferation, CCK-8 | 72 h | 6.18 ± 0.55
CCC(C(=O)O)C1CCC(C)C(C(C)C(O)C(C)C(=O)C(CC)C2OC3(C=CC(NCc4cn(COC(=O)C(C)(C)C)nn4)C4(CCC(C)(C5CCC(O)(CC)C(C)O5)O4)O3)C(C)CC2C)O1 (stereo not drawn) | HMLER CD24high/CD44low | cell viability, CellTiter-Blue | 72 h | 10.3 ± 1
